Results from different studies.
Each line is one published result; not all experiments were run side by side. ± marks the error that the study gave.
Matrix: plasma

O=C(CCc1ccc(CNC(C(=O)O)C2CCCCC2)cn1)NO (centres unmarked)
AUC(0-inf) (healthy male humans; oral, 50 mg, single dose, geometric mean): 363 ng·h/mL

[2H]C([2H])(c1ccc(O)c(O)c1)[C@]([2H])(N)C(=O)O
AUC(0-inf) (human; oral, 150 mg single, geometric LS mean, with: 37.5 mg carbidopa): 3470 ng·h/mL

CN1CCC[C@]1(C)/C=C/S(=O)(=O)NC(=O)Nc1c2c(cc3c1CCC3)CCC2
AUC(0-inf) (human; oral, 50 mg twice daily, day 14, multiple ascending dose): 125000 ng·h/mL

CC(=O)N[C@H](CC(=O)O)C(=O)N[C@H](Cc1c[nH]c2ccccc12)C(=O)N[C@H](Cc1ccccc1)C(=O)N[C@H](CCCCN)C(=O)N[C@H](C)C(=O)N[C@H](Cc1ccccc1)C(=O)N[C@H](Cc1ccc(O)cc1)C(=O)N[C@H](CC(=O)O)C(=O)N[C@H](CCCCN)C(=O)N[C@@H](C(=O)N[C@H](C)C(=O)N[C@H](CCC(=O)O)C(=O)N[C@H](CCCCN)C(=O)N[C@H](Cc1ccccc1)C(=O)N[C@H](CCCCN)C(=O)N[C@H](CCC(=O)O)C(=O)N[C@H](C)C(=O)N[C@H](Cc1ccccc1)C(N)=O)C(C)C
AUC(0-inf) (human, statin-treated high-risk CHD, female; oral, 500 mg daily, day 13, mean, detected subjects only): 575 ng·h/mL

C=CC(=O)Nc1cc(Nc2nccc(-c3cn(C4CC4)c4ccccc34)n2)c(OC)cc1N(C)CCNC
AUC(0-inf) (healthy Chinese male human; oral, 110 mg almonertinib, metabolite, [14C] single dose): 1120 ± 103 ng·h/mL

Cn1c(=O)oc2ccc(-c3ccc(CC(C#N)NC(=O)C4CNCCCO4)c(F)c3)cc21 (centres unmarked)
AUC(0-inf) (human volunteers; 80 mg single dose, fasted, geometric mean): 8740 ng·h/mL

CCCOc1ccc(S(N)(=O)=O)cc1-c1nc2c(CCC)nn(C)c2c(=O)[nH]1
AUC(0-inf) (healthy male humans; oral, 200 mg of udenafil, with: dapoxetine 60 mg): 4970 ± 2920 ng·h/mL

CCc1c2c(nc3ccc(O)cc13)-c1cc3c(c(=O)n1C2)COC(=O)[C@]3(O)CC
AUC(0-inf) (human patients; intravenous, 133 mg/m^2 of parent drug): 1720 ng·h/mL

O=C(CCc1ccc(CNC(C(=O)OC2CCCC2)C2CCCCC2)cn1)NO (centres unmarked)
AUC(0-inf) (human; oral, 60 mg single dose, geometric mean): 247 ng·h/mL

CC(C)(O)c1ncc([S@](N)(=O)=NC(=O)Nc2c3c(cc4c2CCC4)CCC3)s1
AUC(0-inf) (healthy human fasted; oral, 300 mg single dose, spray-dried dispersion): 329000 ng·h/mL

[2H]C([2H])([2H])NC(=O)c1ccc(N2C(=S)N(c3ccc(C#N)c(C(F)(F)F)c3)C(=O)C2(C)C)cc1F
AUC(0-inf) (healthy male humans; oral, 40 mg, fasting, soft capsules): 152000 ± 28200 ng·h/mL
